Published values gathered from unrelated publications.
Lines come from different studies, so protocols differ. Numbers after ± are the reported error.
Organism: Staphylococcus aureus

Cc1cc(NS(=O)(=O)c2ccc(N)cc2)no1 — MIC (trimethoprim-resistant clinical isolates): 16 to 500 µg/mL
O=C(Cc1ccccc1Cl)N1CCC(c2nccs2)C1 (centres unmarked) — MIC (various strains incl. MRSA): 50 to 200 µg/mL
Clc1ccc(C=Nc2ncn[nH]2)cc1 — MIC (broth microdilution; MRSA2, methicillin-resistant; 16 to 24 h): > 256 µg/mL
CC1(C)S[C@@H]2[C@H](NC(=O)[C@H](N)c3ccccc3)C(=O)N2[C@H]1C(=O)O — MIC (serial dilution; ATCC 25923; 24 h, 37 °C): 5 ± 0.7 µg/mL
C/C(O)=C1\C(=O)C(CC(C)C)N(C(=O)C=Cc2ccccc2)C1=O (centres unmarked) — MIC (microbial growth, broth dilution; MSSA NEWMAN): 12.5 µg/mL
O=c1c2ccccc2sn1-c1ccccn1 — MIC (panel of 28 strains): 2 to 15.6 µg/mL
CS(=O)(=O)c1ccc(C=Nc2ncn[nH]2)cc1 — MIC (microbial growth, broth dilution; ATCC29213): 128 µg/mL
CN(C)c1ccc(O)c2c1C[C@H]1C[C@H]3[C@H](N(C)C)C(O)=C(C(N)=O)C(=O)[C@@]3(O)C(O)=C1C2=O — MIC (MRSA 5, Tet M, 50% mouse serum): 64 µg/mL
O=C(Cc1cccc(F)c1F)N1CCC(c2ccccc2)C1 (centres unmarked) — MIC (various strains incl. MRSA): ≥ 50 µg/mL
COc1cc2cc(-c3cccc(-c4ccc(-c5ccccc5)cc4)c3)[n+](C)c(C)c2cc1OC — MIC (broth microdilution; 8325-4 MSSA): 2.2 µM
CN(C)c1cc(CNCC(C)(C)C)c(O)c2c1C[C@H]1C[C@H]3[C@H](N(C)C)C(O)=C(C(N)=O)C(=O)[C@@]3(O)C(O)=C1C2=O — MIC (MRSA 5, Tet M, 50% mouse serum): 1 µg/mL
CCCCCCCCCCCCn1sc2ccccc2c1=O — MIC (panel of 28 strains): 0.25 to 62.5 µg/mL
CCCCCCC/C=C/C(=O)N1C(=O)/C(=C(/C)O)C(=O)C1Cc1ccc(O)cc1 (centres unmarked) — MIC (microbial growth, broth dilution; MSSA NEWMAN): 50 µg/mL
N#Cc1ccc(/C=C/c2nc3ccccc3c(=O)n2-c2ccccc2O)cc1 — MIC (broth microdilution; ATCC 29213 MSSA): 0.015 to 4 µg/mL
CCOC(=O)c1c(N)csc1-c1cn(-c2ccccc2)nc1-c1ccc(C)cc1 — MIC (broth microdilution; clinical urinary isolate; compound gamma-irradiated 15 kGy): 0.124 ± 0.2 µg/mL
O=C(O)c1cn(C2CC2)c2cc(N3CCNCC3)c(F)cc2c1=O — MIC (microbial growth, broth dilution; ATCC29; 19 h): 0.5 µg/mL
N[C@@H]1CON=C1O — MIC (MRSA): 12.5 µg/mL
CCCCCCC/C=C/C(=O)N1CC(=O)/C(=C(\C)O)C1=O — MIC (microbial growth, broth dilution; MSSA NEWMAN): 12.5 µg/mL
CCc1cc(=O)c2c(OCC(O)CN3CCCCC3)c3ccoc3c(OC)c2o1 (centres unmarked) — MIC (microbial growth, broth dilution; NCTC4163; 19 h): > 256 µg/mL
CCOc1ccc2ccccc2c1C(=O)N[C@@H]1C(=O)N2[C@@H]1SC(C)(C)[C@@H]2C(=O)O — MIC (broth microdilution; USA300 LAC; 5% human serum): 2 to 4 µM
CCCCCCC/C=C/C(=O)N1C(=O)/C(=C(\O)CCCC)C(=O)C1CC(C)C (centres unmarked) — MIC (microbial growth, broth dilution; MSSA NEWMAN): < 0.1 µg/mL
CCc1cc(=O)c2c(OCC(O)CNC(C)(C)C)c3ccoc3c(OC)c2o1 (centres unmarked) — MIC (microbial growth, broth dilution; NCTC4163; 19 h): > 256 µg/mL
C(=Nc1ncn[nH]1)c1ccc(-c2ccccc2)cc1 — MIC (microbial growth, broth dilution; ATCC29213): 128 µg/mL
COc1cc(-c2cc3cc(OC)c(OC)c(OC)c3c(C)[n+]2C)cc(-c2ccc(-c3ccccc3)cc2)c1OC.[I-] — MIC (broth microdilution; ATCC 33591 MRSA, broth with 2% NaCl; 24 h, 37 °C): 1 to 8 µg/mL
CCCCCCC/C=C/C(=O)N1C(=O)/C(=C(/C)O)C(=O)C1CCCCN (centres unmarked) — MIC (microbial growth, broth dilution; MSSA NEWMAN): 100 µg/mL
CCc1cc(=O)c2c(OCC(O)CN3CCOCC3)c3ccoc3c(OC)c2o1 (centres unmarked) — MIC (microbial growth, broth dilution; NCTC4163; 19 h): > 256 µg/mL
CCCCCCC/C=C/C(=O)N1C(=O)/C(=C(\O)C2CCNCC2)C(=O)C1CC(C)C (centres unmarked) — MIC (microbial growth, broth dilution; MSSA NEWMAN): 50 µg/mL
CC(=O)NC[C@H]1CN(c2ccc(N3CCOCC3)c(F)c2)C(=O)O1 — MIC (microbial growth, broth dilution; MRSA; clinical isolate): 1 µg/mL
COc1ccccc1C1CCN(C(=O)Cc2cccc(F)c2F)C1 (centres unmarked) — MIC (various strains incl. MRSA): ≥ 50 µg/mL
Cc1ccc(C=Nc2nc[nH]n2)c(O)c1 — MIC (microbial growth, broth dilution; ATCC29213): 64 µg/mL
CC(=O)NC[C@H]1CN(c2ccc(N3CCOCC3)c(F)c2)C(=O)O1 — MIC (broth microdilution; USA300 LAC; 5% human serum): 8 µM
Oc1ccc(O)c(C=Nc2ncn[nH]2)c1 — MIC (microbial growth, broth dilution; ATCC29213): 16 µg/mL
O=C(Cc1ccccc1Cl)N1CCC(c2ccccn2)C1 (centres unmarked) — MIC (various strains incl. MRSA): 50 to 200 µg/mL
CCc1cc(=O)c2c(OCC(O)CN(CC)CC)c3ccoc3c(OC)c2o1 (centres unmarked) — MIC (microbial growth, broth dilution; ATCC25; 19 h): > 256 µg/mL
CN(C)c1cc(NC(=O)CNC(C)(C)C)c(O)c2c1C[C@H]1C[C@H]3[C@H](N(C)C)C(O)=C(C(N)=O)C(=O)[C@@]3(O)C(O)=C1C2=O — MIC (MRSA 5, Tet M, 50% mouse serum): 1 µg/mL
gentamicin — MIC (JE2 MRSA; 18 h, pH 7): 0.5 µg/mL
CCc1cc(=O)c2c(OCC3CO3)c3ccoc3c(OC)c2o1 (centres unmarked) — MIC (microbial growth, broth dilution; ATCC6538; 19 h): > 256 µg/mL
CN[C@H](CC(C)C)C(=O)N[C@H]1C(=O)N[C@@H](CC(N)=O)C(=O)N[C@H]2C(=O)N[C@H]3C(=O)N[C@H](C(=O)N[C@H](C(=O)O)c4cc(O)cc(O)c4-c4cc3ccc4O)[C@H](O)c3ccc(c(Cl)c3)Oc3cc2cc(c3O[C@@H]2O[C@H](CO)[C@@H](O)[C@H](O)[C@H]2O[C@H]2C[C@](C)(N)[C@H](O)[C@H](C)O2)Oc2ccc(cc2Cl)[C@H]1O — MIC (broth microdilution; MRSA2, methicillin-resistant; 16 to 24 h): 2 µg/mL
CCCCCn1sc2ccccc2c1=O — MIC (panel of 28 strains): 0.25 to 62.5 µg/mL
C(=Nc1ncn[nH]1)c1ccncc1 — MIC (broth microdilution; MRSA2, methicillin-resistant; 16 to 24 h): > 256 µg/mL
CC1(C)S[C@@H]2[C@H](NC(=O)[C@H](N)c3ccccc3)C(=O)N2[C@H]1C(=O)O — MIC (methicillin-resistant): 183 µM
O=C(O)c1ccc(C=Nc2ncn[nH]2)cc1 — MIC (broth microdilution; MRSA2, methicillin-resistant; 16 to 24 h): > 256 µg/mL
CC(=O)NC[C@H]1CN(c2ccc(N3CCOCC3)c(F)c2)C(=O)O1 — MIC (ATCC 43300 MRSA): 4 µg/mL
COc1cc(Cc2cnc(N)nc2N)cc(OC)c1OC — MIC (microbial growth, broth dilution; ATCC43300; 18 h): 0.312 µg/mL
CCc1cc(=O)c2c(OCC(O)CNC(C)C)c3ccoc3c(OC)c2o1 (centres unmarked) — MIC (microbial growth, broth dilution; ATCC25; 19 h): > 256 µg/mL
vancomycin — MIC (broth microdilution; ATCC 25923, vancomycin-sensitive): 1.25 µg/mL
teicoplanin aglycone — MIC (ATCC 6538P glycopeptide sensitive; 18 h, 37 °C): 1 µg/mL

For quick reference, copied from above:
N[C@@H]1CON=C1O — MIC (MRSA): 12.5 µg/mL
CCCCCCC/C=C/C(=O)N1CC(=O)/C(=C(\C)O)C1=O — MIC (microbial growth, broth dilution; MSSA NEWMAN): 12.5 µg/mL
CCc1cc(=O)c2c(OCC(O)CN3CCCCC3)c3ccoc3c(OC)c2o1 (centres unmarked) — MIC (microbial growth, broth dilution; NCTC4163; 19 h): > 256 µg/mL
CCOc1ccc2ccccc2c1C(=O)N[C@@H]1C(=O)N2[C@@H]1SC(C)(C)[C@@H]2C(=O)O — MIC (broth microdilution; USA300 LAC; 5% human serum): 2 to 4 µM
CCCCCCC/C=C/C(=O)N1C(=O)/C(=C(\O)CCCC)C(=O)C1CC(C)C (centres unmarked) — MIC (microbial growth, broth dilution; MSSA NEWMAN): < 0.1 µg/mL
CCc1cc(=O)c2c(OCC(O)CNC(C)(C)C)c3ccoc3c(OC)c2o1 (centres unmarked) — MIC (microbial growth, broth dilution; NCTC4163; 19 h): > 256 µg/mL
